Results pooled from the literature.
Protocols differ between the studies behind these lines.
Cell line: CCRF-CEM
Effect on: cell growth or viability

| SMILES | method | time | IC50 [µM] |
| --- | --- | --- | --- |
| OC[C@H]1[C@@H](O)[C@@H](O)CN1Cc1ccc(Br)cc1 | MTS | 72 h | 94 |
| COc1ccc(-c2cc(=O)c3c(O)cc(O[C@@H]4O[C@H](CO)[C@@H](O)[C@H](O)[C@H]4O)cc3o2)cc1OC | resazurin | 72 h | 58.5 |
| O=c1ccn([C@@H]2O[C@H](CO)[C@@H](O)[C@H](F)[C@H]2O)c(=O)[nH]1 |  |  | > 200 |
| COc1ccc(C[C@H]2COC(=O)[C@@H]2Cc2ccc(OCCCCCCCC(=O)NO)c(OC)c2)cc1OC | CCK-8 | 48 h | 1.35 |
| CC(C)COC1O[C@@H]2O[C@@]3(C)CC[C@H]4[C@H](C)CCC([C@H]1C)[C@@]24OO3 (some centres unmarked) | XTT |  | 16.7 |
| COc1ccc(CN2C[C@H](O)[C@H](O)[C@@H]2CO)cc1 | MTS | 72 h | 105 |
| S=C(N/N=C/c1ccc(-c2ccccc2)s1)Nc1ccccc1 |  |  | 163 |
| O=c1[nH]c(=O)n([C@@H]2O[C@H](CSSc3ccccn3)[C@@H](O)[C@H](F)[C@H]2O)cc1F |  |  | 43 |
| O=[N+]([O-])c1ccc(/C=N/NC(=S)Nc2ccccc2)s1 |  |  | 6.4 |
| Cc1cn([C@@H]2O[C@H](CSSc3ccccn3)[C@@H](O)[C@H](F)[C@H]2O)c(=O)[nH]c1=O |  |  | 106 |
| C[C@@H]1CCC2[C@]34OO[C@](C)(CC[C@@H]13)O[C@H]4OC[C@]2(C)O (some centres unmarked) | XTT |  | 156 |
| COc1ccc(C[C@H]2COC(=O)[C@@H]2Cc2ccc(OCCCCCCCCC(=O)NO)c(OC)c2)cc1OC | CCK-8 | 48 h | 2.09 |
| C(=C/c1ccccc1)/c1ccccc1 | ATP luminescence | 24 h | 53 |
| Cc1cn([C@@H]2O[C@H](CSSC[C@H]3O[C@@H](n4cc(C)c(=O)[nH]c4=O)[C@H](O)[C@@H](F)[C@@H]3O)[C@@H](O)[C@H](F)[C@H]2O)c(=O)[nH]c1=O |  |  | > 500 |

Some of these lines once more:
| SMILES | method | time | IC50 [µM] |
| --- | --- | --- | --- |
| COc1ccc(C[C@H]2COC(=O)[C@@H]2Cc2ccc(OCCCCCCCCC(=O)NO)c(OC)c2)cc1OC | CCK-8 | 48 h | 2.09 |
| C(=C/c1ccccc1)/c1ccccc1 | ATP luminescence | 24 h | 53 |
